# Assay results pooled from the literature.
# Protocols differ between the studies behind these lines. Several values in a cell are separate wells, animals, samples, runs or records.
# Organism: SARS-CoV-2
Structure (SMILES),effect on,cells,strain,concentration,time,inhibition
Cc1ccc(N2CC3CC(C2)N3)cc1C(=O)NC1(c2ccc3c4c(cccc24)C(=O)N3C)CC1,viral replication,Vero C1008,XBB.1,0.05144 µM,,60%
CC(C)(C)NC(=O)[C@@H](c1cccnc1)N(C(=O)c1ccco1)c1ccc(C(C)(C)C)cc1,viral replication,Vero,,10 µM,,45.8%
Cc1ccc(N2CCN(C)CC2)cc1C(=O)NC1(c2ccc3c4c(cccc24)CC3)CC1,viral replication,Vero C1008,Omicron BA.5,12.5 µM,,100%
CCOC(=O)c1c(CS(=O)(=O)c2ccc(Cl)cc2)n(C)c2cc(Br)c(O)c(CN(C)C)c12,,Vero C1008,MEX-BC2/2020,7.5 µM,96 h,11.7%
Cc1oc2nc1C(=O)N[C@](C)(C(=O)O)c1nc(c(C)o1)C(=O)N[C@](C)(C(=O)O)c1nc(c(C)o1)C(=O)N[C@]2(C)C(=O)O,viral adsorption,Vero E6,NRC-03-nhCoV,20 µM,,65%
CC(C)CC(C(=O)N1CC2(CC1C#N)C(=O)Nc1ccccc12)N(C)C(=O)c1cc2c(F)cc(F)c(F)c2[nH]1 (stereo not shown),viral replication,Vero E6,,0.3333 µM,,108% and 110% and 94.6%
Cc1oc2nc1C(=O)N[C@](C)(C(=O)NCCc1ccccc1)c1nc(c(C)o1)C(=O)N[C@](C)(C(=O)NCCc1ccccc1)c1nc(c(C)o1)C(=O)N[C@]2(C)C(=O)NCCc1ccccc1,viral replication,Vero E6,NRC-03-nhCoV,20 µM,,≤ 50%
O=P(O)(O)Oc1c2c(c(OP(=O)(O)O)c3c1C1CC3c3cc4c(cc31)C1CC4c3ccccc31)C1CC2c2cc3c(cc21)C1CC3c2ccccc21,viral infection,,BetaCoV/France/IDF0372/2020,concentration not given,,inhibited
Cc1ccc(N2CC(N3CCC(C)(O)CC3)C2)cc1C(=O)NC1(c2ccc3c4c(cccc24)CC3)CC1,viral replication,Vero C1008,Omicron BA.5,0.005716 µM,,0%
Cc1oc2nc1C(=O)N[C@](C)(C(=O)OC(C)C)c1nc(c(C)o1)C(=O)N[C@](C)(C(=O)OC(C)C)c1nc(c(C)o1)C(=O)N[C@]2(C)C(=O)OC(C)C,virucidal activity,Vero E6,NRC-03-nhCoV,20 µM,,57%
